Experimental data gathered from unrelated publications.
B1: enzyme (Thermotoga maritima, UniProt Q9WXS3); chain MRLNRETIKDRAAWEKIGVRPPYFDLDEVEKNTKEQPKWVHFGGGNIFRGFVAAVLQNLLEEGKEDTGINVIELFDYEVIDKVYKPYDNLSIAVTIKPDGDFEKRIIASVMEALKGDPSHPDWERAKEIFRNPSLQLASLTITEKGYNIEDQAGNLFPQVMEDMKNGPVSPQTSMGKVAALLYERFKAGRLPIALLSLDNFSRNGEKLYSSVKRISEEWVKSGLVEKDFIDYLEKDVAFPWSMIDKIVPGPSEFIKEHLEKLGIEGMEIFVTSKRTHIAPFVNMEWAQYLVIEDSFPNGRPKLEGADRNVFLTDRETVEKAERMKVTTCLNPLHTALAIFGCLLGYKKIADEMKDPLLKKLVEGVGEEGIKVVVDPGIINPREFLNEVINIRLPNPYLPDTPQRIATDTSQKMPIRFGETIKAYHERPDLDPRNLKYIPLVIAGWCRYLMGIDDEGREMQLSPDPLLENLRSYVSKIKFGDPESTDDHLKPILSSQQLFRVNLYEVGLGEKIEELFKKMITGPRAVRKTLEEVVGREDG
B2: CYP4F3 A27G/C46R/I34V/M14V/R49Q/W12G (Homo sapiens, UniProt Q08477); chain MALLLAVFLLGPVAASPWLLLLLVGGSWLLARVLAWTYTFYDNCRRLQCFPQPPKRNWFLGHLGLIHSSEEGLLYTQSLACTFGDMCCWWVGPWHAIVRIFHPTYIKPVLFAPAAIVPKDKVFYSFLKPWLGDGLLLSAGEKWSRHRRMLTPAFHFNILKPYMKIFNESVNIMHAKWQLLASEGSARLDMFEHISLMTLDSLQKCVFSFDSHCQEKPSEYIAAILELSALVTKRHQQILLYIDFLYYLTPDGQRFRRACRLVHDFTDAVIQERRRTLPSQGVDDFLQAKAKSKTLDFIDVLLLSKDEDGKKLSDEDIRAEADTFMFEGHDTTASGLSWVLYHLAKHPEYQERCRQEVQELLKDREPKEIEWDDLAQLPFLTMCIKESLRLHPPVPAVSRCCTQDIVLPDGRVIPKGIICLISVFGTHHNPAVWPDPEVYDPFRFDPKNIKERSPLAFIPFSAGPRNCIGQAFAMAEMKVVLGLTLLRFRVLPDHTEPRRKPELVLRAEGGLWLRVEPLS
B3: enzyme (Sargassum horneri, UniProt A0A097IUG6); chain SPMAVASPSGFQKAMKTTLSSLGIDKATGITKPTTIYRNLPYPEVFKHEEQNKEGEVTKNGTFCVSTGQFTGRSPKDKYFVKQAPSDGKLDWGKINKGVASEVYKNIYDKAVKHYNTNVDKMYVFDGYCGTSPKSRKNVRIITELAWQHHFAKNMFIRPETEEEVANFVPDFTIINACKIVNEDYKELGLNSEVAVVFNVEESKAVITGTWYGGEMKKGIFSMMNYWLPLDGVMSMHCSANKGKDGDTALFFGLSGTGKTTLSADPARYLIGDDEHGWDDDGIFNFEGGCYAKTVNLSRENEPEIYDAIKRDALLENVIIKKNGEPDYADVSRTENTRVSYPIYHIDNYEPSGMGDHPKSIVFLTCDAFGVLPPVSRLSPGQAMYHFLSGYTAKVAGTERGVTEPTPNFSAGFGAAFLTLHPTVYADLLQEKLDKHGTQCFLINTGWTGGGYGVGKRMSIKATRACVDAVLDGSINKTKFTKEPVFGFEVPQELPNVPSKVLNPREAWSDKASYDATRTKLGDMFKNNFTKFVKPGMTDYTAYGPK
UniProt Q09472, sequence (whole entry, looked up): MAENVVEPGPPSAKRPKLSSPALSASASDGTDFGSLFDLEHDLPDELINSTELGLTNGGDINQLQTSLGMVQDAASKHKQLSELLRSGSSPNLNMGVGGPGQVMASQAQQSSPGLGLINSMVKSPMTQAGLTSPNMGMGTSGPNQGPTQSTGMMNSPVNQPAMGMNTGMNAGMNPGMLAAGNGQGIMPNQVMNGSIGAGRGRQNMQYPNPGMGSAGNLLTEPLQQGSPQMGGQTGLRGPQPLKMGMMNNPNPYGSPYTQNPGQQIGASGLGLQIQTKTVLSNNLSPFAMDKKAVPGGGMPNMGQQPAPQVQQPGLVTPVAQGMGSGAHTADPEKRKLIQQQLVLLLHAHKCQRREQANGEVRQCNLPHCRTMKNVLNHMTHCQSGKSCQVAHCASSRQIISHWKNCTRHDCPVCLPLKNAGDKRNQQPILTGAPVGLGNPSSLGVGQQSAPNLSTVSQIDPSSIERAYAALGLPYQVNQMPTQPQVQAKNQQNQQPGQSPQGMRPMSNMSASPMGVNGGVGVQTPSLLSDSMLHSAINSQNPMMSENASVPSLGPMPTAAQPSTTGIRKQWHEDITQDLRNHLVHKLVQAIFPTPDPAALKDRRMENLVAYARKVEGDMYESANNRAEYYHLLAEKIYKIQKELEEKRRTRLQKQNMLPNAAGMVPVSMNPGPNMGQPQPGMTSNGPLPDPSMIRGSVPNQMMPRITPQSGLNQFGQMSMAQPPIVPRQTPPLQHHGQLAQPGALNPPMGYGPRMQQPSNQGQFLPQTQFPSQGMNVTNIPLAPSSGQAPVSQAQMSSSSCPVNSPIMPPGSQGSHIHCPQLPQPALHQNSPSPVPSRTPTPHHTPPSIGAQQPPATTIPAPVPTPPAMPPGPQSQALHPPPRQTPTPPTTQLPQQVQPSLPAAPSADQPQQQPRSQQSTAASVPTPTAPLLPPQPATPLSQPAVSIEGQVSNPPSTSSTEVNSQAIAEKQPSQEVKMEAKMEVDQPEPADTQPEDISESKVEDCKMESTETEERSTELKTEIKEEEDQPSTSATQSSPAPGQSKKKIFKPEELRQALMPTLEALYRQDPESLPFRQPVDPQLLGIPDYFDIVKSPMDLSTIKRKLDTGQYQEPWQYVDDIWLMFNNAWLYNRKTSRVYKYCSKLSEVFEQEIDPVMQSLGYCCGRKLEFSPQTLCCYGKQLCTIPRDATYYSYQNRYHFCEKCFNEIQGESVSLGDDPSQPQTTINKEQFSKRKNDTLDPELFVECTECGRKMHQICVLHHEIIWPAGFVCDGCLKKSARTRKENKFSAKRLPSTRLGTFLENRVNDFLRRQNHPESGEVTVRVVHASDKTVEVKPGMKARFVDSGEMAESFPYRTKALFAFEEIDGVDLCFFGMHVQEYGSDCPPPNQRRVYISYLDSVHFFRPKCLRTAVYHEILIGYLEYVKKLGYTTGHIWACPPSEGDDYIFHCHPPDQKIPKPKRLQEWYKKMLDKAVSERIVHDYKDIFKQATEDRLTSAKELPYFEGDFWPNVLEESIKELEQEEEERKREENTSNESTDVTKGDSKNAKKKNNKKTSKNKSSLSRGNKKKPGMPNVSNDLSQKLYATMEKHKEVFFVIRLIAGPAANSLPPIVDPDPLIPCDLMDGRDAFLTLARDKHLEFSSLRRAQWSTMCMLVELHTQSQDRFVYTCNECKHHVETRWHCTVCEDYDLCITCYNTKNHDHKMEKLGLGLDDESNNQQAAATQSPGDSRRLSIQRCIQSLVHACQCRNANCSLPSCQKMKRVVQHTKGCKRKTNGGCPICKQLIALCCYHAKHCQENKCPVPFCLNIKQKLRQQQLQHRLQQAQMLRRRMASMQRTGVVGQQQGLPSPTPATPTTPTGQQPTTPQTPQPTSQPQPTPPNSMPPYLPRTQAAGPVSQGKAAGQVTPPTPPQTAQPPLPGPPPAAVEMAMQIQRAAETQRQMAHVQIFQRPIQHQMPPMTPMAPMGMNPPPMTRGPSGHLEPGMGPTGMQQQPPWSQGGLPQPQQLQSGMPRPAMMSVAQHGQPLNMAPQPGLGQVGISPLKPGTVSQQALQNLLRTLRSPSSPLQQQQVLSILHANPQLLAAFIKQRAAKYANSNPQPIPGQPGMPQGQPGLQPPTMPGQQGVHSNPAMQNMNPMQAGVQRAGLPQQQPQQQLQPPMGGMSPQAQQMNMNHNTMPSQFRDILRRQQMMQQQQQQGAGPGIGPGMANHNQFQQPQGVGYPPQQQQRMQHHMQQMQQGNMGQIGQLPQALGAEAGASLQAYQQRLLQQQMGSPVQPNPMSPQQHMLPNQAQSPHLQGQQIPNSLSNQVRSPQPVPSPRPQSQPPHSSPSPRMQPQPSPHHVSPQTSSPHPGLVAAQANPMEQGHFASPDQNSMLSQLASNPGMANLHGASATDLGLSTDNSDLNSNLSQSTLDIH
UniProt P0A2K1, sequence (whole entry, looked up): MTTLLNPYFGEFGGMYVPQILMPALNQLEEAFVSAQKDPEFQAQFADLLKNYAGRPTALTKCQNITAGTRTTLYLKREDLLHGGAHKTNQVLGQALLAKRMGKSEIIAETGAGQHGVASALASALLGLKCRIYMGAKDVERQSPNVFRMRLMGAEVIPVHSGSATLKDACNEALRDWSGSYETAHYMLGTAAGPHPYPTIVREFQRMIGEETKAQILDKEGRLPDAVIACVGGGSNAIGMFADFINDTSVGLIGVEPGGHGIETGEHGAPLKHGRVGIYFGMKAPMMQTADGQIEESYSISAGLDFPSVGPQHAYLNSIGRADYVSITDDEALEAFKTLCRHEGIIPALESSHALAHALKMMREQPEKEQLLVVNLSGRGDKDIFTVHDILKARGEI
UniProt Q978S7, sequence (whole entry, looked up): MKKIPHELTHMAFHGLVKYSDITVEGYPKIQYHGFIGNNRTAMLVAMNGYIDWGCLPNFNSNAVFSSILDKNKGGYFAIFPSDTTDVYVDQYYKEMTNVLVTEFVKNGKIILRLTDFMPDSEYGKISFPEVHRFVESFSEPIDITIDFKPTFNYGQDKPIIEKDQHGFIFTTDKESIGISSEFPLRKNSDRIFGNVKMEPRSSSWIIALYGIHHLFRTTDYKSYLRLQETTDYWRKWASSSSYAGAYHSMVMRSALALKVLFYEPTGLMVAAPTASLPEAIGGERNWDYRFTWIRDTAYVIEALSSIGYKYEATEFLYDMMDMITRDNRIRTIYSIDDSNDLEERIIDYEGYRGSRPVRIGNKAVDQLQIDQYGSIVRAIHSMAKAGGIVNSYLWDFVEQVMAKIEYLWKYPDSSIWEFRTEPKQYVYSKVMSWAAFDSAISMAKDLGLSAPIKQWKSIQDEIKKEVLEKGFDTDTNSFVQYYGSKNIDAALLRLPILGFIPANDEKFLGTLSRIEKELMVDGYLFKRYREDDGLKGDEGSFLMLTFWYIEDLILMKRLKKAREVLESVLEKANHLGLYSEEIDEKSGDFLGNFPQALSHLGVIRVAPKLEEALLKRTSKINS
UniProt P19224, sequence (whole entry, looked up): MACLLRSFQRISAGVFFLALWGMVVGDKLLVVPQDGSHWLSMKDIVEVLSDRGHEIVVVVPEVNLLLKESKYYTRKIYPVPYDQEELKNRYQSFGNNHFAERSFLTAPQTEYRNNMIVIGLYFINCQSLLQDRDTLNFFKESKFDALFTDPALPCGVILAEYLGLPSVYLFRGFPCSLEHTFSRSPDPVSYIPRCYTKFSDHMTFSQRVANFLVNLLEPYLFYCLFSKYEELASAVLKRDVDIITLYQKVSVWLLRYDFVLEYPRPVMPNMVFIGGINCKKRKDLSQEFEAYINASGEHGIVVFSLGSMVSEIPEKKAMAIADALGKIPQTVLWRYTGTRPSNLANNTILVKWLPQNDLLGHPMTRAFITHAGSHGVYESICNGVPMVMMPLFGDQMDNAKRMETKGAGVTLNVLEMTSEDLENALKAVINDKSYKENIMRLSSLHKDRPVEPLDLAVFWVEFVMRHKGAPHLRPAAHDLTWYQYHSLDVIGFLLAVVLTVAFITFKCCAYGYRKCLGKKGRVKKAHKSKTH

| Substance | target or system | test | system | conditions | scale | quantity | result |
| --- | --- | --- | --- | --- | --- | --- | --- |
| GGWVEKETYY | human MAGI1-2/6 PDZ construct (MBP fusion) | automated holdup | peptide, crude extract | concentration not given, corrected by standard peak, unit not given | relative to: biotin control resin, higher = stronger binding | binding intensity | -0.0476 |
| enzyme (Chlamydomonas reinhardtii, UniProt A0A2K3D977) | NC(=O)C1=CN([C@@H]2O[C@H](COP(=O)(O)OP(=O)(O)OC[C@H]3O[C@@H](n4cnc5c(N)ncnc54)[C@H](O)[C@@H]3O)[C@@H](O)[C@H]2O)C=CC1 | steady-state kinetics |  | pH 7.5, added: DHAP 5 mM |  | Km | 45 µM |
| KPGKGSETVV | human MAGI1-3/6 PDZ construct (MBP fusion) | automated holdup | peptide, purified PDZ protein | concentration not given, unit not given | relative to: biotin control resin, higher = stronger binding | binding intensity | 0.0381 |
| EP300 (Homo sapiens, UniProt Q09472) | CC(=O)SCCNC(=O)CCNC(=O)[C@H](O)C(C)(C)COP(=O)(O)OP(=O)(O)OC[C@H]1O[C@@H](n2cnc3c(N)ncnc32)[C@H](O)[C@@H]1OP(=O)(O)O | steady-state kinetics |  |  |  | Km | 4.3 µM |
| enzyme (Tannerella forsythia, UniProt G8UMQ6) | C[C@@H]1O[C@@H](Oc2ccc([N+](=O)[O-])cc2Cl)[C@@H](O)[C@H](O)[C@@H]1O | steady-state kinetics |  | pH 8.4, 40 °C |  | Km | 774 µM |
| enzyme (Thermoplasma volcanium, UniProt Q978S7) | OC[C@H]1O[C@H](O[C@H]2O[C@H](CO)[C@@H](O)[C@H](O)[C@H]2O)[C@H](O)[C@@H](O)[C@@H]1O | steady-state kinetics |  | pH 3.7, 30 °C |  | Km | 66400 µM |
| enzyme (Salmonella enterica, UniProt P0A2K1) | N[C@@H](CO)C(=O)O | steady-state kinetics |  | pH 7.8, 22 °C, apparent |  | Km | 2160 µM |
| B1 (enzyme) | O=C(O)[C@@H](O)[C@@H](O)[C@H](O)[C@H](O)CO | steady-state kinetics |  | pH 8.5, added: NAD |  | Km | 630 µM |
| B2 | CCCCC/C=C\C[C@@H](O)/C=C/C=C/C=C\[C@@H](O)CCCC(=O)O | steady-state kinetics |  | pH 7.4 |  | Km | 75.5 µM |
| enzyme (UniProt A0A4R3LQ44) | O=C(O)[C@H](O)[C@@H](O)[C@@H](O)CO | steady-state kinetics |  | pH 7.5, 50 °C |  | Km | 7200 µM |
| B3 (enzyme) | Nc1ncnc2c1ncn2[C@@H]1O[C@H](COP(=O)(O)OP(=O)(O)O)[C@@H](O)[C@H]1O | steady-state kinetics |  | pH 6.5, 25 °C, added: 16 mM PEP |  | Km | 140 µM |
| UGT1A6 (Homo sapiens, UniProt P19224) | O=c1cc(C(F)(F)F)c2ccc(O)cc2o1 | steady-state kinetics |  | 37 °C, not purified |  | Km | 97 µM |

A few entries again:
| Substance | target or system | test | system | conditions | scale | quantity | result |
| --- | --- | --- | --- | --- | --- | --- | --- |
| B3 (enzyme) | Nc1ncnc2c1ncn2[C@@H]1O[C@H](COP(=O)(O)OP(=O)(O)O)[C@@H](O)[C@H]1O | steady-state kinetics |  | pH 6.5, 25 °C, added: 16 mM PEP |  | Km | 140 µM |
